Results gathered from unrelated publications.
Compare with care: the assays were run in different laboratories. ± gives the spread as reported.
T1: NEMO 50-113 T50E/L55R/R75V/C76S/E78R/C95A/R106E/E110V; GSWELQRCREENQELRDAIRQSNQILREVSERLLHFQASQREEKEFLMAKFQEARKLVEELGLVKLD
B1: Pigr 19-135 (Mus musculus, UniProt O70570); chain KSPIFGPQEVSSIEGDSVSITCYYPDTSVNRHTRKYWCRQGASGMCTTLISSNGYLSKEYSGRANLINFPENNTFVINIEQLTQDDTGSYKCGLGTSNRGLSFDVSLEVSQVPELPS
B2: WDR77 108-207 (Homo sapiens, UniProt Q9BQA1); sequence looked up; chain LDENETLIVSKFCKYEHDDIVSTVSVLSSGTQAVSGSKDICIKVWDLAQQVVLSSYRAHAAQVTCVAASPHKDSVFLSCSEDNRILLWDTRCPKPASQIG
B3: ATG9 1-255 (Saccharomyces cerevisiae, UniProt Q12142); sequence looked up; chain MERDEYQLPNSHGKNTFLSRIFGLQSDEVNPSLNSQEMSNFPLPDIERGSSLLHSTNDSREDVDENDLRVPESDQGTSTEEEDEVDEEQVQAYAPQISDGLDGDHQLNSVTSKENVLETEKSNLERLVEGSTDDSVPKVGQLSSEEEEDNEFINNDGFDDDTPLFQKSKIHEFSSKKSNTIEDGKRPLFFRHILQNNRPQRDTQKLFTSSNAIHHDKDKSANNGPRNINGNQKHGTKYFGSATQPRFTGSPLNNT
B4: prolactin-inducible protein, human; sequence looked up; chain QDNTRKIIIKNFDIPKSVRPNDEVTAVLAVQTELKECMVVKTYLISSIPLQGAFNYKYTACLCDDNPKTFYWDFYTNRTVQIAAVVDVIRELGICPDDAAVIPIKNNRFYTIEILKVE
B5: ACVR1 21-123 (Homo sapiens, UniProt Q04771); sequence looked up; chain MEDEKPKVNPKLYMCVCEGLSCGNEDHCEGQQCFSSLSINDGFHVYQKGCFQVYEQGKMTCKTPPSPGQAVECCQGDWCNRNITAQLPTKGKSFPGTQNFHLE
B6: RPRD1A (Homo sapiens, UniProt Q96P16); chain MSAFSEAALEKKLSELSNSQQSVQTLSLWLIHHRKHSRPIVTVWERELRKAKPNRKLTFLYLANDVIQNSKRKGPEFTKDFAPVIVEAFKHVSSETDESCKKHLGRVLSIWEERSVYENDVLEQLKQALYGDKKPRKRTYEQIKVDENENCSSLGSPSEPPQTLDLVRALQDLENAASGDAAVHQRIASLPVEVQEVSLLDKITDKESGERLSKMVEDACMLLADYNGRLAAEIDDRKQLTRMLADFLRCQKEALAEKEHKLEEYKRKLARVSLVRKELRSRIQSLPDLSRLPNVTGSHMHLPFAGDIYSED
B7: designed binder (Homo sapiens); chain MASAARLTMMWEEVTCPICLDPFVEPVSIECGHSFCQECISQVGKGGGSVCPVCRQRFLLKNLRPNRQLANMVNNLKEISQEAREGTQGERCAVHGERLHLFCEKDGKALCWVCAQSRKHRDHAMVPLEEAAQEYQEKLQVALGELRRKQELAEKLEVEIAIKRADWKKTVETQKSRIHAEFVQQKNFLVEEEQRQLQELEKDEREQLRILGEKEAKLAQQSQALQELISELDRRCHSSALELLQEVIIVLERSESWNLKDLDITSPELRSVCHVPGLKKMLRTCAGGGGSGGGGSGGGGSRLDAPSAIRVYRVTDVYAIIYWYVPLAEIDGFELTYGIKDVPGDRTTIKLTEDDSTYVIYRLKPDTEYEVSLISRRGDMSSNPAKITFKTGL
B8: MMACHC 1-243 (Homo sapiens, UniProt Q9Y4U1); chain MEPKVAELKQKIEDTLCPFGFEVYPFQVAWYNELLPPAFHLPLPGPTLAFLVLSTPAMFDRALKPFLQSCHLRMLTDPVDQCVAYHLGRVRESLPELQIEIIADYEVHPNRRPKILAQTAAHVAGAAYYYQRQDVEADPWGNQRISGVCIHPRFGGWFAIRGVVLLPGIEVPDLPPRKPHDCVPTRADRIALLEGFNFHWRDWTYRDAVTPQERYSEEQKAYFSTPPAQRLALLGLAQPSEKP
B9: Mena EVH1 1-113 (Homo sapiens, UniProt Q8N8S7); chain MSEQSICQARAAVMVYDDANKKWVPAGGSTGFSRVHIYHHTGNNTFRVVGRKIQDHQVVINCAIPKGLKYNQATQTFHQWRDARQVYGLNFGSKEDANVFASAMMHALEVLNS
B10: DVL2 PDZ domain (Homo sapiens, UniProt O14641); chain NIITVTLNMEKYNFLGISIVGQSNERGDGGIYIGSIMKGGAVAADGRIEPGDMLLQVNDMNFENMSNDDAVRVLRDIVH
B11: Cacng2 203-323 (Mus musculus, UniProt O88602); chain DRHKQLRATARATDYLQASAITRIPSYRYRYQRRSRSSSRSTEPSHSRDASPVGVKGFNTLPSTEISMYTLSRDPLKAATTPTATYNSDRDNSFLQVHNCIQKDSKDSLHANTANRRTTPV
B12: human hexokinase-1; sequence looked up; chain MIAAQLLAYYFTELKDDQVKKIDKYLYAMRLSDETLIDIMTRFRKEMKNGLSRDFNPTATVKMLPTFVRSIPDGSEKGDFIALDLGGSSFRILRVQVNHEKNQNVHMESEVYDTPENIVHGSGSQLFDHVAECLGDFMEKRKIKDKKLPVGFTFSFPCQQSKIDEAILITWTKRFKASGVEGADVVKLLNKAIKKRGDYDANIVAVVNDTVGTMMTCGYDDQHCEVGLIIGTGTNACYMEELRHIDLVEGDEGRMCINTEWGAFGDDGSLEDIRTEFDREIDRGSLNPGKQLFEKMVSGMYLGELVRLILVKMAKEGLLFEGRITPELLTRGKFNTSDVSAIEKNKEGLHNAKEILTRLGVEPSDDDCVSVQHVCTIVSFRSANLVAATLGAILNRLRDNKGTPRLRTTVGVDGSLYKTHPQYSRRFHKTLRRLVPDSDVRFLLSESGSGKGAAMVTAVAYRLAEQHRQIEETLAHFHLTKDMLLEVKKRMRAEMELGLRKQTHNNAVVKMLPSFVRRTPDGTENGDFLALDLGGTNFRVLLVKIRSGKKRTVEMHNKIYAIPIEIMQGTGEELFDHIVSCISDFLDYMGIKGPRMPLGFTFSFPCQQTSLDAGILITWTKGFKATDCVGHDVVTLLRDAIKRREEFDLDVVAVVNDTVGTMMTCAYEEPTCEVGLIVGTGSNACYMEEMKNVEMVEGDQGQMCINMEWGAFGDNGCLDDIRTHYDRLVDEYSLNAGKQRYEKMISGMYLGEIVRNILIDFTKKGFLFRGQISETLKTRGIFETKFLSQIESDRLALLQVRAILQQLGLNSTCDDSILVKTVCGVVSRRAAQLCGAGMAAVVDKIRENRGLDRLNVTVGVDGTLYKLHPHFSRIMHQTVKELSPKCNVSFLLSEDGSGKGAALITAVGVRLRTEASS
Sequence of UniProt Q06671 (whole entry, looked up): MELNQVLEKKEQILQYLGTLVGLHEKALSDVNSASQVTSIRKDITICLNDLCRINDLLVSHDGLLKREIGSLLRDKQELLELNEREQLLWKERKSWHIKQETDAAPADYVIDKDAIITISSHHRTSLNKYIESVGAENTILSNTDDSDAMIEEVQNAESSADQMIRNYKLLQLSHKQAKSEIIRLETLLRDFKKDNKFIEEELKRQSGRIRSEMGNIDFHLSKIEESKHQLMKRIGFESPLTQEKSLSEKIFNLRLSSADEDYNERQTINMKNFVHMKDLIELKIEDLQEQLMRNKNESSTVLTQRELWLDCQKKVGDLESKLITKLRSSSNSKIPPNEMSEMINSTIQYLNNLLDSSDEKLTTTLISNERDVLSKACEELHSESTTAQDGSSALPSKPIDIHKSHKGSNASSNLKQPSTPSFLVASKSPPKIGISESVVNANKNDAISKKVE
Sequence of UniProt P35968 (whole entry, looked up): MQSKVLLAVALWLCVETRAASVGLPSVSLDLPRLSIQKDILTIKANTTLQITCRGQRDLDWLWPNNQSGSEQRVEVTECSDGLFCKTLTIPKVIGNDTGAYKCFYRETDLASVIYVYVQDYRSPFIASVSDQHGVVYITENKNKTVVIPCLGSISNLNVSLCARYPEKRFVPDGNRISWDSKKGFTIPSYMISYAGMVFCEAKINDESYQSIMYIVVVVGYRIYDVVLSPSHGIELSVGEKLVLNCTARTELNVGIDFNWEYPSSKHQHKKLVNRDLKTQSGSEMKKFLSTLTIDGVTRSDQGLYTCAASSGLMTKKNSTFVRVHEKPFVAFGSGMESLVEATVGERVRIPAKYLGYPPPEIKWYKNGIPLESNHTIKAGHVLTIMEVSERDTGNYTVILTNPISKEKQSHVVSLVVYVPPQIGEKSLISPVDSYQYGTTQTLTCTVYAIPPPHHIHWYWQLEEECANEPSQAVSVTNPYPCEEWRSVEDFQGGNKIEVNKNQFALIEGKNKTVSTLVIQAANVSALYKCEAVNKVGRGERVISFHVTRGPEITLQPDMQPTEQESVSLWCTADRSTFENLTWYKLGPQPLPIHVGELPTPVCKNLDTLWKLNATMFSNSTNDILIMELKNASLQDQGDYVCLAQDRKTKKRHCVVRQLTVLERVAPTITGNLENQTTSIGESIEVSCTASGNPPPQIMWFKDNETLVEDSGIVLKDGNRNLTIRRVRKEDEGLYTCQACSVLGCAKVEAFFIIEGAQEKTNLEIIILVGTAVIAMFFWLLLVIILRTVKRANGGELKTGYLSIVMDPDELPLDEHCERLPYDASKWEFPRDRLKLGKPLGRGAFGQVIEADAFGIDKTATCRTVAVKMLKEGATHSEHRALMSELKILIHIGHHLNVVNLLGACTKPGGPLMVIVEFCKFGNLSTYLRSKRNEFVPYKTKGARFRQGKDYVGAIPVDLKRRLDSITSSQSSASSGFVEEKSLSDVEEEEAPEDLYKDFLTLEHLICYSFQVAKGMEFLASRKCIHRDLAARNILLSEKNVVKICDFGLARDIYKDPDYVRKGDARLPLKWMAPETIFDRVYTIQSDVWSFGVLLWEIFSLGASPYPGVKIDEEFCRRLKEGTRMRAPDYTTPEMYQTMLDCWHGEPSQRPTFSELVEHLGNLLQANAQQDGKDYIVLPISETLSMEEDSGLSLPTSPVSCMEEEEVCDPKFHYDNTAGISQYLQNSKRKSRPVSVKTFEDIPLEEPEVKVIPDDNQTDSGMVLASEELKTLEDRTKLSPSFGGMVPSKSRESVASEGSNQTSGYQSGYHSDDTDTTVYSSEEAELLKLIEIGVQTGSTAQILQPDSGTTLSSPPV
Sequence of UniProt P52803 (whole entry, looked up): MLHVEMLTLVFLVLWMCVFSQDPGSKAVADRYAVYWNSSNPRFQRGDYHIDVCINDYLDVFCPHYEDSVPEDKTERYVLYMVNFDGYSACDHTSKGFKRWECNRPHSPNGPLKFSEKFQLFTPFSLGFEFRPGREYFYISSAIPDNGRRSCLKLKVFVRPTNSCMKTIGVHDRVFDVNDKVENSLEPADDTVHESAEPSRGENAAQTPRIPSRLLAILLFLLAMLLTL
Sequence of UniProt Q9H3L0 (whole entry, looked up): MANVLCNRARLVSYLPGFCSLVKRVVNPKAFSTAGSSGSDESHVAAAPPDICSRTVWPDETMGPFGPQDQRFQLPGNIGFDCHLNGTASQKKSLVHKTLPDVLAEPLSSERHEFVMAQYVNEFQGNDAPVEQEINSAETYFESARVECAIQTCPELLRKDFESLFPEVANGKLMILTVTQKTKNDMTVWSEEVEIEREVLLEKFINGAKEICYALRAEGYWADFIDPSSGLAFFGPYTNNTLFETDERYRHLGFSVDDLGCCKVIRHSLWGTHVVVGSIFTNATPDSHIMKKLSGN
Sequence of UniProt P08631 (whole entry, looked up): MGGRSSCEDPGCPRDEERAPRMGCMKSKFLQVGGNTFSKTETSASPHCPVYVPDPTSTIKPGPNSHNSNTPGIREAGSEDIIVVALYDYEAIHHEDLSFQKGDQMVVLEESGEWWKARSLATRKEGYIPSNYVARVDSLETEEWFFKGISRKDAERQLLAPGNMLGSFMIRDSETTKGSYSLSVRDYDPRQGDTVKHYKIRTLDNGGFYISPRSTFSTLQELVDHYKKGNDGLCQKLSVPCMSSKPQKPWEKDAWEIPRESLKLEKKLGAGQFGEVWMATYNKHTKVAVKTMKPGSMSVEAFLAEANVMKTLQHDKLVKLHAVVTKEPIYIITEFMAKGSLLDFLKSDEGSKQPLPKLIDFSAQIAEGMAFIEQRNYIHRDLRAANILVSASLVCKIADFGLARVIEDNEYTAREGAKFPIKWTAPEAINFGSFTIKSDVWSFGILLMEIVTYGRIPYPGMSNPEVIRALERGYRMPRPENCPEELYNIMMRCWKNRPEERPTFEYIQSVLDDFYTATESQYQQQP
Sequence of UniProt Q8IXW5 (whole entry, looked up): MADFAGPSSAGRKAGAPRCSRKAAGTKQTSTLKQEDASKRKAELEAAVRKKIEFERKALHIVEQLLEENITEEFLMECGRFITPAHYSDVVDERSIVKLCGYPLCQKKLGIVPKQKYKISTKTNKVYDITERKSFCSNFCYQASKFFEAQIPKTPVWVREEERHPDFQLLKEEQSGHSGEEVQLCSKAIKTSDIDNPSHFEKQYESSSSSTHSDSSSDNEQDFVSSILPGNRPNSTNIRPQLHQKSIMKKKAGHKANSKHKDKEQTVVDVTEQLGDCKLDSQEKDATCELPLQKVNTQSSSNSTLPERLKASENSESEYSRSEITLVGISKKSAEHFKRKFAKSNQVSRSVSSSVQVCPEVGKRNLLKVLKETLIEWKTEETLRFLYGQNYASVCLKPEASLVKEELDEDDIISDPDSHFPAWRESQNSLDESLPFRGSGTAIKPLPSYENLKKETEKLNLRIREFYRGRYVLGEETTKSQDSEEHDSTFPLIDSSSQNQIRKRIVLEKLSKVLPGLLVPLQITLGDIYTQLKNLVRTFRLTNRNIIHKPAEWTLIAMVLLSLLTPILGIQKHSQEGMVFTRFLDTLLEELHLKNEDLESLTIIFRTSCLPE
Sequence of UniProt Q9UDY8 (whole entry, looked up): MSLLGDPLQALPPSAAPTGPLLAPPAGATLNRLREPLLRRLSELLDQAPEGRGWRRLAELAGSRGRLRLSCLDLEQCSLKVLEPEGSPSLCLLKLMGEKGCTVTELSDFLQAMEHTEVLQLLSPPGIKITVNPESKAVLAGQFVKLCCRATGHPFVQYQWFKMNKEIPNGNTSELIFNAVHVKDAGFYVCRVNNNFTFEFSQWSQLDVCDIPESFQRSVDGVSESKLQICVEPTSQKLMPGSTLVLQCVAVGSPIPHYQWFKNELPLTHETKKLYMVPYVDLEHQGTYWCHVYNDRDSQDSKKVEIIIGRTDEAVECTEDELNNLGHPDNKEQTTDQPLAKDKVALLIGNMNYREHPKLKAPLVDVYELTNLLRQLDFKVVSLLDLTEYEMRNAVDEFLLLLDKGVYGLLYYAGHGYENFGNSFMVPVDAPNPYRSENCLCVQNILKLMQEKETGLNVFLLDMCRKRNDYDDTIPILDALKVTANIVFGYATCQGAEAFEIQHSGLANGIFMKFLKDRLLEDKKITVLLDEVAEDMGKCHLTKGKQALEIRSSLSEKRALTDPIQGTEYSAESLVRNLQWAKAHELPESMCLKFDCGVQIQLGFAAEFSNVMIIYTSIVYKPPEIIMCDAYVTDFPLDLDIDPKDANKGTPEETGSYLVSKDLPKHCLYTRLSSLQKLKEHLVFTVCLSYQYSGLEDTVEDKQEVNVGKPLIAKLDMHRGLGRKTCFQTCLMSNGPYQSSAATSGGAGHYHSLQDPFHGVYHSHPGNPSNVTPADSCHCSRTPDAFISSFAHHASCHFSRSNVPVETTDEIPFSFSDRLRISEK
Sequence of UniProt Q9NWS0 (whole entry, looked up): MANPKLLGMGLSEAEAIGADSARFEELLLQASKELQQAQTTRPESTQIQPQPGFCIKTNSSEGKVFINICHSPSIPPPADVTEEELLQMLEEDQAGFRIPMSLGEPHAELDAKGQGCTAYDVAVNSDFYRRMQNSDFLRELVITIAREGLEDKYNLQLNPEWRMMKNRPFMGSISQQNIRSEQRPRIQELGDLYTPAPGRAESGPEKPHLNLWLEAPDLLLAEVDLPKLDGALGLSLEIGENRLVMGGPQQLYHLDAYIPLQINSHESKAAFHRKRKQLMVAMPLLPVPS
Sequence of UniProt Q8RWU7 (whole entry, looked up): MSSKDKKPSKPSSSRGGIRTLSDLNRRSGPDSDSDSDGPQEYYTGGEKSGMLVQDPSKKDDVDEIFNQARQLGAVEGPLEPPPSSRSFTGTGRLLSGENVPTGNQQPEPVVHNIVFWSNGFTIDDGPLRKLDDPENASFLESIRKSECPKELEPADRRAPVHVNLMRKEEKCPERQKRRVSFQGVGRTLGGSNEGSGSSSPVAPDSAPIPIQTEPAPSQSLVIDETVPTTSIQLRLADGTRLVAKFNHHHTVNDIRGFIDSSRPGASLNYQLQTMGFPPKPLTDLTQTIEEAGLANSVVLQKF

Substance | tested on | assay | system | conditions | scale | quantity | value
B1 (Pigr 19-135) | Igha/Jchain CH2-CH3 with J chain P136A (Mus musculus) | SPR | – | – | – | Kd | 0.329 µM
ramucirumab, partial Asn deamidation | KDR (Homo sapiens, UniProt P35968) | SPR | – | – | – | Kd | 0.00023 µM
Tln1 fragment (Mus musculus) | RIAM TBS peptide 5-25 M11E/F12E/L15E/L16E, stapled, FITC label (Mus musculus, UniProt Q8R5A3) | fluorescence polarization | – | together with: FITC-labeled peptide 20 nM | – | Kd | > 100 µM
B2 (WDR77 108-207) | AR (Homo sapiens, UniProt P10275) | BLI | – | in vitro | – | Kd | 0.000153 µM
B3 (ATG9 1-255) | Atg23 full-length, dimer (yeast, UniProt Q06671) | BLI | – | – | – | Kd | 1.5 µM
B4 | CYB5R4 knockout human cells | PP6 interaction, 3xFLAG-PP6C IP-MS | – | concentration not given | reference: CYB5R4 KO over parental | log2 fold change | 0.68
CACNA1C fragment S1700D (Rattus norvegicus) | CACNA1C IQ motif 1644-1668, fluorescein label (UniProt P15381) | fluorescence polarisation | – | – | – | Kd | 3 ± 1 µM
B5 (ACVR1 21-123) | BMP6 mature (UniProt P22004) | SPR | Fc fusion | – | – | Kd | 0.00395 µM
ASCC3 C-degron | APPBP2/ELOB/ELOC C54A/H89A (Homo sapiens) | ITC | – | – | – | Kd | 2 ± 0.5 µM
KLLMIIHDRREFAKFEKEKMNAKWDTQENPIYKSPINNFKNPNYGRKAGL (ITGB1 752-801 (Homo sapiens, UniProt P05556-5); sequence looked up) | Tln2 312-408 (Mus musculus, UniProt Q71LX4) | NMR titration | – | – | – | Kd | 36 µM
B6 (RPRD1A) | RPAP2 (Homo sapiens, UniProt Q8IXW5) | ITC | – | 25 °C | – | Kd | 447 µM
PARRSEELVAEAHNLCTLLENAIQDTVREQDQSFTALDWSWLQTE (IKBKB 701-745 K703R/K704R (UniProt O14920); N-terminal FITC; sequence looked up) | T1, NEMO 50-113 T50E/L55R/R75V/C76S/E78R/C95A/R106E/E110V | fluorescence polarisation | peptide | – | – | Kd | 0.348 µM
YAGSDSDLDTDDEFVPY (TELO2 483-497 (Homo sapiens); pT491) | PIH1D1 1-180 (Homo sapiens, UniProt Q9NWS0) | ITC | peptide | – | – | Kd | 15 µM
B7 (designed binder) | MALT1 (Homo sapiens, UniProt Q9UDY8) | BLI | designed binder | – | – | Kd | 0.1742 ± 0.0017 µM
ENAH EVH1 domain (Homo sapiens) | ABI3 peptide G5P (Homo sapiens) | BLI | – | – | – | Kd | 40.2 µM
EPHA2 fragment, auto-phosphorylated (Homo sapiens) | EFNA5 (Homo sapiens, UniProt P52803) | BLI | – | apparent | – | Kd | 0.36 µM
B8 (MMACHC 1-243) | MMADHC 116-296 (Homo sapiens, UniProt Q9H3L0) | UV-visible absorption titration | – | – | – | Kd | < 0.2 µM
EGLN1 fragment | HIF1A NODD peptide 394-411, C-terminal amide (Homo sapiens) | BLI | – | – | – | Kd | 3.2 ± 0.3 µM
GAUCACAUU (ssRNA) | U2AF2 148-342 (Homo sapiens, UniProt P26368) | sequencing of bound RNA | RNA | motif only | – | Kd | 4.95 µM
B9 (Mena EVH1 1-113) | PTP1B (Homo sapiens) | ITC | – | – | – | Kd | 20.2 µM
B10 (DVL2 PDZ domain) | FZD7 peptide (Homo sapiens, UniProt O75084) | fluorescence anisotropy | – | – | – | Kd | 28 µM
KISPPTPKPRPPRPLPVAPGS (PIK3R1 proline-rich region 1 (Homo sapiens)) | HCK 78-138 (Homo sapiens, UniProt P08631) | ITC | peptide | – | – | Kd | 33.8 ± 3.5 µM
B11 (Cacng2 203-323) | DLG4 fragment, pS142 (Homo sapiens) | ITC | – | – | – | Kd | 1.2 µM
TERLVLRLNRKKKKVSWKDGTVDNE (INH3 27-51 (Arabidopsis thaliana, UniProt Q8S8F7)) | PUX4 (Arabidopsis thaliana, UniProt Q8RWU7) | ITC | peptide | – | – | Kd | 70.4 ± 14.9 µM
B12 (human hexokinase-1) | PP6C (human) | co-immunoprecipitation, IP-MS | CYB5R4 knockout cells | concentration not given | reference: CYB5R4 knockout over parental | log2 fold change | -0.92
Notch ankyrin domain K152A/R107A (Drosophila) | dx (Drosophila melanogaster, UniProt Q23985) | AUC | – | – | – | Kd | 9.91 µM
Neuropeptide Y | – | RP-HPLC | HALO Phenyl-hexyl column | 25 µM, acetic acid/acetonitrile, 10 min gradient | – | retention time | 5.15 min

Repeated from above:
Substance | tested on | assay | system | conditions | scale | quantity | value
ramucirumab, partial Asn deamidation | KDR (Homo sapiens, UniProt P35968) | SPR | – | – | – | Kd | 0.00023 µM
Tln1 fragment (Mus musculus) | RIAM TBS peptide 5-25 M11E/F12E/L15E/L16E, stapled, FITC label (Mus musculus, UniProt Q8R5A3) | fluorescence polarization | – | together with: FITC-labeled peptide 20 nM | – | Kd | > 100 µM
B2 (WDR77 108-207) | AR (Homo sapiens, UniProt P10275) | BLI | – | in vitro | – | Kd | 0.000153 µM
